Published values collected from several papers.
Lines come from different studies, so protocols differ. “And” joins repeats or separate records; there may be more than shown. ± gives the spread as reported.
folP: Dihydropteroate synthase (folP, Bacteria, UniProt P0AC13)
Chain of UniProt P0AC13 (whole entry, looked up): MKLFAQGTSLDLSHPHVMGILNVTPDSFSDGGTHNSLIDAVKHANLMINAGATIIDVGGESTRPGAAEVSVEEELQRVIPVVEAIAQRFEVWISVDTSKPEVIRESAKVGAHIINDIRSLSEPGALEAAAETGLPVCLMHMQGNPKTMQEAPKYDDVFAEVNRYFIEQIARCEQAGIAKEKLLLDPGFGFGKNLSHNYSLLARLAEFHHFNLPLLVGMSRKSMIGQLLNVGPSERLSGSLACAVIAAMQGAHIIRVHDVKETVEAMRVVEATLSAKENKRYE
TARDBP aggregated: TAR DNA-binding protein 43, aggregated (TARDBP, Homo sapiens, UniProt Q13148)
Chain of UniProt Q13148 (whole entry, looked up): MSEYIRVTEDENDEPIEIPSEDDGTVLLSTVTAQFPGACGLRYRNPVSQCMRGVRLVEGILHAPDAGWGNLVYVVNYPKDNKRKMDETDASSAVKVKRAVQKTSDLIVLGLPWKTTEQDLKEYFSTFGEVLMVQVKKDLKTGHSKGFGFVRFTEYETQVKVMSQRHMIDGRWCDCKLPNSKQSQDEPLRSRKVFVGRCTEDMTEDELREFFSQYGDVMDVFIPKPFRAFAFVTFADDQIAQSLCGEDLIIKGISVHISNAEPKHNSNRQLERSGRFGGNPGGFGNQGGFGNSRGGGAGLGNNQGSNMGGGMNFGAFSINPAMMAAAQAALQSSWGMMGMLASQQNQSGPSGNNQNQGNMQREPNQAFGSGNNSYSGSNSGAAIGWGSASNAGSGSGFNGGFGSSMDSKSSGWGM
T1: RNA aptamer; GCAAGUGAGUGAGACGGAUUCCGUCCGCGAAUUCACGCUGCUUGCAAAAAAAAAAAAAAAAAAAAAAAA
T2: RNA aptamer; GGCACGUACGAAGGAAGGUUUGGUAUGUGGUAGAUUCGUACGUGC
T3: RNA aptamer; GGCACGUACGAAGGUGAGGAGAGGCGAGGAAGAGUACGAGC
T4: RNA aptamer; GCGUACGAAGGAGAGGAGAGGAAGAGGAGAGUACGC
Chain of UniProt P97287 (152-308, unmodified, looked up): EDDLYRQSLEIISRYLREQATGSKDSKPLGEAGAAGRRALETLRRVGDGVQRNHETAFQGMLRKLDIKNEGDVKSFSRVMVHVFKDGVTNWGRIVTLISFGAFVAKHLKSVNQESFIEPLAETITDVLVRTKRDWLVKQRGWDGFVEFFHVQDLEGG
Chain of UniProt Q14694 (whole entry, looked up): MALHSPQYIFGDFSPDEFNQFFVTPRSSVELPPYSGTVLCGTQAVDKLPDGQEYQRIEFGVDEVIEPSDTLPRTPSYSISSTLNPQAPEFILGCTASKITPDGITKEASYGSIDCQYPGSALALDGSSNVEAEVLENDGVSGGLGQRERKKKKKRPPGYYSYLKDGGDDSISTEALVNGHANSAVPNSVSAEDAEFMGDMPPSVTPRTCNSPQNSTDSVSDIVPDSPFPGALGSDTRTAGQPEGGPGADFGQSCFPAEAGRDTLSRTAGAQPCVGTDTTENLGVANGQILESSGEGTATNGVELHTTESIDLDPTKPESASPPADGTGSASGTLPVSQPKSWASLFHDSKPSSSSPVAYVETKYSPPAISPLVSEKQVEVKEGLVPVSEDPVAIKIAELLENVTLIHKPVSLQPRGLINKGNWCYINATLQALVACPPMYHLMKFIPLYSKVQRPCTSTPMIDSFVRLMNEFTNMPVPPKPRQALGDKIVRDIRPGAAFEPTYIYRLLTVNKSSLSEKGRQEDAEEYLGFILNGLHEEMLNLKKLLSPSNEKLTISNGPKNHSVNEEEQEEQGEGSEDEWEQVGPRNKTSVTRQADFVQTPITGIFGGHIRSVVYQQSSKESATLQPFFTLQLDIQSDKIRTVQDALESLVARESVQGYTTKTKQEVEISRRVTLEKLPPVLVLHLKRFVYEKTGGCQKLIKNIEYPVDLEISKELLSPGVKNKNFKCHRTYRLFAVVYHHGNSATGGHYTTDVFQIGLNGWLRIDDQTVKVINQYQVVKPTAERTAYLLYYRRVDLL
Chain of UniProt Q13526 (whole entry, looked up): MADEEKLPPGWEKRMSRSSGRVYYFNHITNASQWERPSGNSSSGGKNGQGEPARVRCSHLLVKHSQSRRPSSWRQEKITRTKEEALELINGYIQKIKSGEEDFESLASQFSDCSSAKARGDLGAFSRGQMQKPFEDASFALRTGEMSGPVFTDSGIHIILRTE
Chain of UniProt O75581 (whole entry, looked up): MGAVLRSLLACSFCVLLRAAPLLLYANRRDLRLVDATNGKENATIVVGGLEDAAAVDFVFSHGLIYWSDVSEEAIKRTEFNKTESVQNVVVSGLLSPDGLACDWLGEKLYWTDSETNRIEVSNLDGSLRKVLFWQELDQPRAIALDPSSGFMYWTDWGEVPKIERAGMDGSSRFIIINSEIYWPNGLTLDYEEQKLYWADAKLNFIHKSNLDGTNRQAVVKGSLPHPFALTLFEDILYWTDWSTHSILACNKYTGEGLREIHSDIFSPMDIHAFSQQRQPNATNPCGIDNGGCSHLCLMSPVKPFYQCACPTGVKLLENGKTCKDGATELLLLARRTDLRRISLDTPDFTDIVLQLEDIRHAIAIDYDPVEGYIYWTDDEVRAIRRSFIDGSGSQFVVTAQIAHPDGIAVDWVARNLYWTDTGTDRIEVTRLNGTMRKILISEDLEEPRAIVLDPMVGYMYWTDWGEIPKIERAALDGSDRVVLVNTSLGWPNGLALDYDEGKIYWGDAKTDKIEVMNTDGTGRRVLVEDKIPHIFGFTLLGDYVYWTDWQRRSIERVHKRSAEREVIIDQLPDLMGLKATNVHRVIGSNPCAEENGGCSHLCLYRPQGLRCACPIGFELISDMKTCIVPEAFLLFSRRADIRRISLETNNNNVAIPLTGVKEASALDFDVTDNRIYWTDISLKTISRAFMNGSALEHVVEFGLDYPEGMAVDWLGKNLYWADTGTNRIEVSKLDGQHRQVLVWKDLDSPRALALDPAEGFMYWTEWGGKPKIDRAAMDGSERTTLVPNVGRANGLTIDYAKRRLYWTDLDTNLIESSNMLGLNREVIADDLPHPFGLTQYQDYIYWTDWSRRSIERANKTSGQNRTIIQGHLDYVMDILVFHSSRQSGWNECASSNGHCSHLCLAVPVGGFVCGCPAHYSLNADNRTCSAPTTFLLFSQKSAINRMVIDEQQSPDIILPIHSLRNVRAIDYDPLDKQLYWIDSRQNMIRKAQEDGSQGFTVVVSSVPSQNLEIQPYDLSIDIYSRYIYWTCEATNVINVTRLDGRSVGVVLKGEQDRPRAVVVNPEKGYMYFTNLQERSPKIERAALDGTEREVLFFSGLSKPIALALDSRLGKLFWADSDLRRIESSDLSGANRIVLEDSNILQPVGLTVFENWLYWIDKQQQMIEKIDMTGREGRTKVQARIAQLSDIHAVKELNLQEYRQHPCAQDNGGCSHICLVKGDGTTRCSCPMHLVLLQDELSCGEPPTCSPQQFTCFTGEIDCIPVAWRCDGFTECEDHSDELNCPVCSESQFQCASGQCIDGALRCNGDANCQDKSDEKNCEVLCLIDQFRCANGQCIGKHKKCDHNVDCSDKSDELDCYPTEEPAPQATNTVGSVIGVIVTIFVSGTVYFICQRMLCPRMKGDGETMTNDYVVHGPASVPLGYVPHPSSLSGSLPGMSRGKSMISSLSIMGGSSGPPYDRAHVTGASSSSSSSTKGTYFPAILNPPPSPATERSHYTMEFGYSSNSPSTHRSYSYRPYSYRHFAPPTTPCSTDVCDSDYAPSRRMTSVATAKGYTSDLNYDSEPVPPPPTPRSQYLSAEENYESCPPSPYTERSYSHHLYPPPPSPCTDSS
Chain of UniProt O94762 (whole entry, looked up): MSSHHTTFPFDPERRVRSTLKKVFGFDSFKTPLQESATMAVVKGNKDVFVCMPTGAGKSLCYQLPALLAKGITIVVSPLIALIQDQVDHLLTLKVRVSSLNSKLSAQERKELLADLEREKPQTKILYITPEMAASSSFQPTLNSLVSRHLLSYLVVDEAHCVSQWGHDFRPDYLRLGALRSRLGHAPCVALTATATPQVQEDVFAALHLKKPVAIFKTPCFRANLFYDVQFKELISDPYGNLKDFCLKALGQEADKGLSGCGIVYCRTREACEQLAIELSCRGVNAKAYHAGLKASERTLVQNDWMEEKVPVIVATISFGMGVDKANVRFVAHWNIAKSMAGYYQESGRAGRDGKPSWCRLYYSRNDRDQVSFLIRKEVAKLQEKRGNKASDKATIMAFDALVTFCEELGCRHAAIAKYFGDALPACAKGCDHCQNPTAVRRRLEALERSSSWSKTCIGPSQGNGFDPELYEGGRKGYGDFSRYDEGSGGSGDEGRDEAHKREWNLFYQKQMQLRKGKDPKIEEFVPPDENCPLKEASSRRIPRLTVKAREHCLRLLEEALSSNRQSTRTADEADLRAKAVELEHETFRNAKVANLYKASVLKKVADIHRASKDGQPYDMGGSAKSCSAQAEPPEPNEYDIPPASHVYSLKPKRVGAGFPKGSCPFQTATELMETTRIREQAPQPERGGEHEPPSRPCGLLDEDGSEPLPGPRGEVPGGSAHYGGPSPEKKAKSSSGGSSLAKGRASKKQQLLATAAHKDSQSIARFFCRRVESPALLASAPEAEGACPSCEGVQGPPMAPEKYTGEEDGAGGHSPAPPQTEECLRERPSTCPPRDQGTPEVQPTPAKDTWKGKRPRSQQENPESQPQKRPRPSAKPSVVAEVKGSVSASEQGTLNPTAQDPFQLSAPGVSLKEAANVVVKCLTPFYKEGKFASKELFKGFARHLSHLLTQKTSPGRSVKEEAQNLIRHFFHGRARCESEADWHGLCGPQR

| Compound | target | test | system | conditions | scale | measurement | value |
| --- | --- | --- | --- | --- | --- | --- | --- |
| CN(Cc1nn(C)c2nc(N)[nH]c(=O)c2c1=O)c1nnn[nH]1 | folP | CETSA HiBiT | Escherichia coli, whole cells | concentration not given | baseline: DMSO | melting temperature shift | 3.96 °C |
| CCC1Sc2ccc(S(=O)(=O)CCC(=O)Nc3cccc4ccccc34)cc2NC1=O (stereo not drawn) | P2X purinoceptor 7 (Ailuropoda melanoleuca, UniProt G1M6C4) | ATP-evoked current, inhibitor, whole-cell patch clamp | HEK293 transfected | 0.1 µM, wild type |  | remaining current | 98.5% |
| CC(=O)C12NC(C)(C)CC1(C)C(=O)C1=C2c2c(c3c4n2C(C)(C)CC2=C4C4(CC(C)(C)NC(C)(C4)C2=O)CC3(C)C)C(=O)C(C)(C)N1 (single isomer, unassigned; (-)) | Glutamate NMDA receptor; GRIN1/GRIN2A (Homo sapiens, UniProt Q05586+Q12879) | ion current, agonist, whole-cell patch clamp | HEK293T | 10 µM |  | activation | 4.31 ± 0.04% |
| Cn1nnnc1SCc1nn(C)c2nc(N)[nH]c(=O)c2c1=O | folP | CETSA HiBiT | Escherichia coli, whole cells | concentration not given | baseline: DMSO | melting temperature shift | 9.89 °C |
| N#CN1CC[C@H](C(=O)Nc2nc3c(s2)CN(C(=O)Cn2cc(CNC(=O)CCCC[C@@H]4SC[C@@H]5NC(=O)N[C@@H]54)nn2)CC3)C1 | USP10 (Homo sapiens, UniProt Q14694) | probe binding, affinity probe, neutravidin pull-down LC-MS/MS | HEK293T, cell lysate | 5 µM, 1 h, mean of three replicates, unit not given | higher = more pulled down | iBAQ abundance | 1.29e+06 |
| CC[C@H](C)[C@H](NC(=O)[C@H](CCC(=O)O)NC(=O)[C@H](CCCNC(=N)N)NC(=O)[C@H](C)NC(=O)[C@H](Cc1c[nH]c2ccccc12)NC(=O)[C@H](CCC(=O)O)NC(=O)[C@H](CCC(=O)O)NC(=O)[C@H](CCC(=O)O)NC(C)=O)C(=O)NCC(=O)N[C@@H](C)C(=O)N[C@@H](Cc1ccc(O)cc1)C(=O)N[C@@H](CC(C)C)C(=O)N[C@@H](CCCNC(=N)N)C(=O)N[C@@H](CCCNC(=N)N)C(=O)N[C@@H](C)C(=O)N[C@@H](C)C(=O)N[C@@H](CC(=O)O)C(=O)N[C@@H](CC(=O)O)C(=O)N[C@@H](CC(C)C)C(=O)N[C@@H](CC(N)=O)C(=O)N[C@@H](C)C(=O)N[C@@H](CCC(N)=O)C(=O)N[C@@H](Cc1ccc(O)cc1)C(=O)N[C@@H](CCC(=O)O)C(=O)N[C@@H](CCCNC(=N)N)C(=O)N[C@@H](CCCNC(=N)N)C(=O)N[C@@H](CCCNC(=N)N)C(N)=O | Induced myeloid leukemia cell differentiation protein Mcl-1 homolog, residues 152-308 (Mus musculus, UniProt P97287) | binding, SPR |  |  | baseline: PUMA peptide | ΔΔG | -1.52 kcal/mol |
| Cn1nnnc1NCc1nn(C)c2nc(N)[nH]c(=O)c2c1=O | folP | CETSA HiBiT | Escherichia coli, whole cells | concentration not given | baseline: DMSO | melting temperature shift | 2.54 °C |
| O=C1c2sc(-c3ccc(N4CCC(F)C4)nc3F)nc2CCN1c1cccnc1 (stereo not drawn) | TARDBP aggregated | saturation autoradiography | human, FTLD-TDP type A brain sections | 0.195 nM |  | specific binding | 5.01 nM |
| CCCCCC(O)/C=C/C=O (stereo not drawn) | Alpha-adducin (ADD1, Homo sapiens, UniProt P35611) | competitive isoTOP-ABPP, measured: ADD1 cysteine peptide | Ramos soluble proteome | 100 µM, together with: iodoacetamide probe | baseline: DMSO over compound-treated, higher = stronger cysteine blockade | isoTOP-ABPP competition ratio | 1.7 |
| COc1ccccc1-c1ccncc1C(=O)Nc1nnc(OCc2ccc(Cl)cc2)s1 | RECQL5 (Homo sapiens, UniProt O94762) | ATPase activity, ADP-Glo |  | 0.12 µM, 1 h |  | remaining activity | 108% |
| Cn1c(=O)n(C2CCC(=O)NC2=O)c2ccc(C3CCN(CC(=O)Nc4cccc(CS(=O)(=O)N5CC[C@H](Nc6cccc(-c7sc(C(=O)O)c(OCC(=O)O)c7Cl)c6)CC5(C)C)c4)CC3)cc21 (stereo partly drawn) | PTPN1 (Homo sapiens, UniProt P18031) | degrader, bio-layer interferometry |  | 31.3 nM, biotinylated protein immobilised | higher = more binding | BLI binding response | 0.0945 a.u. |
| Fc1ccc(Nc2nc(NCc3ncccn3)nc(Nc3ccccc3)n2)cc1 | T1, RNA aptamer | SPR |  | 25 °C, read off a plot |  | Kd | 3800 nM |
| Cc1ccc2c(c1)N(C)C=CC2=Cc1sc2ccccc2[n+]1CC(=O)NCCOCCOCCOCCNC(=O)CCCC[C@@H]1SC[C@@H]2NC(=O)N[C@@H]21 | T2, RNA aptamer | fluorescence titration |  |  |  | Kd | 13.5 nM |
| Cn1nc(C(=O)O)c(=O)c2c(=O)[nH]c(N)nc21 | folP | CETSA HiBiT | Escherichia coli, cell lysate | concentration not given | baseline: DMSO | melting temperature shift | 14.7 °C |
| O=C1c2sc(-c3ccc(N4CCC(CO)CC4)nc3F)nc2CCN1c1cccnc1 | TARDBP aggregated | radioligand binding | human, FTLD-TDP type B extract | together with: radioligand 72.89 nM |  | specific binding | 9.28 nM and 7.44 nM |
| CCC1(CC)C(=O)N(c2cc(O[Si](C)(C)C(C)(C)C)cc(C(=O)N3CCN(Cc4ccc(Br)cc4)CC3)c2)C1=O | DPP9 (Homo sapiens, UniProt Q86TI2) | enzyme activity, inhibitor |  | 5 µM |  | activity vs control | > 90% |
| CC[C@H](C)[C@@H]1NC(=O)[C@H](C)NC(=O)[C@H](CCCCN)NC(=O)[C@@H](NC(=O)CN)CSSC[C@@H]2NC(=O)CNC(=O)[C@H](C)NC(=O)[C@H](CC(C)C)NC(=O)[C@@H]3CSSC[C@@H](C(=O)NCC(=O)O)NC(=O)[C@H](Cc4ccccc4)NC(=O)CNC(=O)[C@H](CC(N)=O)NC(=O)[C@@H]4CCCN4C(=O)CNC(=O)[C@H](CSSC[C@H](NC(=O)[C@H](CCCNC(=N)N)NC(=O)[C@H](CCC(N)=O)NC(=O)[C@@H]4CCCN4C(=O)[C@H](CCCCN)NC(=O)[C@H](CC(C)C)NC(=O)[C@H](CC(C)C)NC(=O)[C@H](CC(N)=O)NC1=O)C(=O)N[C@@H](CCCCN)C(=O)N[C@@H](CCC(N)=O)C(=O)N[C@@H](CC(=O)O)C(=O)N[C@@H](CO)C(=O)N[C@@H](CC(=O)O)C(=O)N3)NC(=O)[C@H](C(C)C)NC2=O | Low-density lipoprotein receptor-related protein 6, E1 domain (LRP6, Homo sapiens, UniProt O75581) | binding, SPR |  | pH 7.5 |  | kon | 320000 ± 30000 M⁻¹ s⁻¹ |
| NC(=O)[C@H](Cc1c[nH]c2ccc(F)cc12)NC(=O)[C@@H]1CCCCN1C(=O)[C@@H]1Cc2c([nH]c3ccccc23)CN1C(=O)CCl | PIN1 (Homo sapiens, UniProt Q13526) | protein degradation, degrader | human cancer cell lines | 5 µM |  | Dmax | ~100% |
| O=c1cc(-c2ccccc2)oc2cc(O[C@@H]3O[C@H](CO)[C@@H](O)[C@H](O)[C@H]3O)c(O)c(O)c12 | COMT (Homo sapiens, UniProt P21964) | UV |  |  | baseline: native over denatured target | binding index | 1.72 |
| Cc1ccc2c(c1)N(C)C=CC2=Cc1sc2ccccc2[n+]1C | T3, RNA aptamer | fluorescence titration |  |  |  | Kd | 8.98 nM |
| CCCCCC=CC=C1C(=O)C=CC1CC=CCCCC(=O)O (stereo not drawn) | Large ribosomal subunit protein uL14 (Homo sapiens, UniProt P62829) | competitive isoTOP-ABPP, measured: RPL23 cysteine peptide | Ramos soluble proteome | 100 µM, together with: iodoacetamide probe | baseline: DMSO over compound-treated, higher = stronger cysteine blockade | isoTOP-ABPP competition ratio | 3 |
| CCc1occc(=O)c1[O-].[Cl-].[W+4].c1cc[cH-]c1.c1cc[cH-]c1 | Albumin (ALB, Homo sapiens, UniProt P02768) | binding, fluorescence quenching |  | 288 K |  | Gibbs free energy change | -5.47 kcal/mol |
| CC(C(=O)O)c1n[nH]c2nc(N)[nH]c(=O)c2c1=O (stereo not drawn) | folP | CETSA HiBiT | Escherichia coli, cell lysate | concentration not given | baseline: DMSO | melting temperature shift | 20.9 °C |
| CN1C=C/C(=C\c2sc3ccccc3[n+]2CC(=O)NCc2c(F)cccc2-n2cccn2)c2ccccc21 | T4, RNA aptamer | fluorescence titration |  | apparent |  | Kd | 0.69 nM |
| C=CC(=O)N1C[C@H](C)N(c2nc(OC[C@@]34CCCN3C[C@H](F)C4)nc3c(F)c(-c4ccc(F)c5sc(N)c(C#N)c45)c(C(F)(F)F)cc23)C[C@H]1C | GTPase KRas, GDP-bound (KRAS, Homo sapiens, UniProt P01116, C118S/C51S/C80L) | thermal stability, measured: KRAS-GDP |  | 100 µM | baseline: DMSO | ΔTm | 20 ± 0.2 °C |
| Cn1nc(CCCC(=O)O)c(=O)c2c(=O)[nH]c(N)nc21 | folP | CETSA HiBiT | Escherichia coli, cell lysate | concentration not given | baseline: DMSO | melting temperature shift | 13.7 °C |
| CCn1cc(-c2cccc(C(F)(F)F)c2)c2sc(C(=N)NC3CCS(=O)(=O)CC3)cc2c1=O | TAF1 (Homo sapiens, UniProt P21675) |  |  |  |  | ΔTm | -0.3 °C |
